Results from different studies.
Every numbered part comes from another study and shows a few of its results, in no order. Substitutions count along the parent as printed.

Block 1
Target: RNA binding protein fox-1 homolog 2, RRM domain, GST-SBP tag (RBFOX2, Homo sapiens, UniProt O43251-10, residues 100-194)
Technique: RNA Bind-n-Seq
Molecule type: RNA
Medium: in vitro
Tested at: 365 nM
Notes: natural RNA segment, single round, ends assumed
Baseline: no-protein control
Reading: higher = stronger binding
Quantity: RBNS enrichment (R)
Residues (chain): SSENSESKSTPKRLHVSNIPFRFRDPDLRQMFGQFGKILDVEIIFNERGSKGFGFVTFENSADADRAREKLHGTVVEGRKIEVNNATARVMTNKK
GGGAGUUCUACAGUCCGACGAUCAAACUUGUAGGUUCACAUAUUAUUUUGACUAAGGUAUAUGGAUUUCCCCCCACUUACAUAAGUAAACCCAACAUAAGGAGGACCAUUCCUUUUCUUUCAUUCAGAUGACCUGGAAUUCUCGGGUGCCAA: 0.532
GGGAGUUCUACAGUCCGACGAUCCUGUAGUGCACUCCCAGCAGGCCAUGGACUAGUCACUAACCCCACACUCAAAGGGGCAUGGGUGGUGGAGAAGCAGAAGGAGCAAUCAAGCUUAUCUGGAUAUUUCUUUCUGGAAUUCUCGGGUGCCAA: 0.18
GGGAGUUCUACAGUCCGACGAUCGAUCUGUUAGGAAUAAGAUUGAUAUUGUAUUGUGUGUAACCUGCACAAUGUGGAAAGCUGAUAUACCUGUGCAAAAUCUUUGCCUCUGUGCUGUCAGUGUGAUGUGCUUUUGGAAUUCUCGGGUGCCAA: 0.454
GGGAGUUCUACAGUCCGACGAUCAGAGAGACUAUCUUGUGUUGUGCCUGUAUGAAUUUUUAAAAGUUGUUGACUGGAUUUUGCAAAAGGAUGUAUAAUAUUUCUGUCUGCUCAGAAUAUUAAUUUGUAAAUUCUGGAAUUCUCGGGUGCCAA: 14
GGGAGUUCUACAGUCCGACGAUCGUCUUAAAGAGUUCAAAACCUUGGAACCCAGUUUUCUCACUACGUCUAUAAAGGCCAUUACAGACCCAAGGCUGUUUUGCAGUUUUCAUAUGUUGUUUGCUGAAGUCAUUUGGAAUUCUCGGGUGCCAA: 0.555
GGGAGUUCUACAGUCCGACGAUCACAUCCCUGCUUUUGACUGAACACUGCACAGAAGCCCCUGAAAUAGGGCCUCUCCCUCGUUGUCAUGUGCACUUUCCGUCUGAGGGAACUGCAGCUGCUGGAAGGCCAGCUGGAAUUCUCGGGUGCCAA: 0.356
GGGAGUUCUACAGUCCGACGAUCGUCCUGUAUCCUGGAGUAUUAUGUCUCCCCACCUUCUGCAGUUUUCUCUGAACAUGUAUGUUGCCCAUGGUGGGAGCGUGGUCACUGUGCAGUUGUGCACAGAUGUCUUUUGGAAUUCUCGGGUGCCAA: 1.22
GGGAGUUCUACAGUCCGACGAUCGGGAAAUCACAGUUCAUCACUUGAGCAUCAUAGCCUUACCCCUCGCCCCUGGUCCUACUCCUGCCUCGGUGAUAGAAGGAGGCAGGGUAAGGGUAUGCCCCUGGCCACUAUGGAAUUCUCGGGUGCCAA: 0.298
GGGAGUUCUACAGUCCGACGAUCCCUCAGCCGGUGGGUCACUUCUCCAGUGUCCAGUGCCAUCUUUCUCGACCCUGUUUCUUUCCAUUCAAGAACCGUCGGUCCCCUUGUAAUAAAGGUGGUAGAUUUCAUUAUGGAAUUCUCGGGUGCCAA: 0.227
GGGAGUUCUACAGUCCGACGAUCAGGAGGUUAGCCGUUAUUUACCAACUUUCAAGAACGUAAUCUUGUUCAAUAAGGUGAAAUAUCAAUGAUUGGUACACAGUCACAAUGUACCGUUAAAAUAUGCACUAAGUUGGAAUUCUCGGGUGCCAA: 0.331
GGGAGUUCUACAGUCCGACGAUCCCUGAGGCCCAGUGGCAGCCUCUGUCACAGGGUCCCAGAGCCUGAGCUGAGGCGUCACCCUUAAAGCCACCCACCUUGAGACCUAUCCUUGCUCCCUCCUUCCCUCCUGUUGGAAUUCUCGGGUGCCAA: 0.411
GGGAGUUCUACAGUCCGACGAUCCUUUCCUGCACUUAUGGAAAUGCUUUGUCUUUCCCAAUGAAACUGAUGUUUGCUUGUCUGCUUUCUCUUUAUAGUACAUGAACAGUUCAGCCUUAGACUAUGUAACUGUUUGGAAUUCUCGGGUGCCAA: 1.01

Block 2
Target: CCNE2, cyclin fold, Cln2 fusion (human)
Technique: yeast growth competition, sequencing
Medium: yeast
Notes: weak parent motif
Baseline: not given
Reading: higher = stronger binding
Quantity: normalised enrichment score
Starting sequence: SLBP docking peptide (human); ARYKRKLLINDFG
G13C: 0.936
L7Y: 1.11
L7M: 0.978
F12S: 0.207
N10P: 0.867
I9P: 1.19
L8N: 1.28
A1F: 0.261
N10D: 0.793
L7Q: 0.3
A1D: 0.759
K4I: 0.38
F12A: 0.588
I9H: 0.617
R2L: 1.1
R5E: 0.56
L7C: 0.754
R2I: 1.28
Y3S: 1.62
R5M: 1.49
F12I: 0.244
K6Y: 0.779
R5I: 1.22
R2H: 1.28
N10V: 0.289

Block 3
Target: Fragile X messenger ribonucleoprotein 1, C-terminal low-complexity region (Fmr1, Mus musculus, UniProt P35922)
Technique: RNA Bind-n-Seq
Molecule type: RNA
Medium: in vitro
Tested at: 200 nM
Notes: whole 134-nt RNA, ends assumed
With: 150 mM LiCl
Baseline: input library
Reading: higher = stronger binding
Quantity: log2 enrichment
Each molecule: 7-deaza-guanosine replaces G
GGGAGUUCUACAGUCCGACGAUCCAAGUCCUGUGCUACACAUCGUAUGUACCGAAUCGGGAAAGGGAAAGGGGAAAGGGAAAGUAUUAUGUUACGCCGUUCGGAUCUGCACUUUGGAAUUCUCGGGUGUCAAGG: -1.04
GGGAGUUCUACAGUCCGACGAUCCCUCAAGUCCUGUGCUACACAUCGUAUGUACCGAAUCGGUGGUGGAAAAAGGAAAGUAUUAUGUUACGCCGUUCGGAUCUGCACUUCCAGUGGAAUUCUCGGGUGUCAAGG: 0.375
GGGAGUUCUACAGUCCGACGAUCGCAGGAAGUAAAAACAAAUGGAAAUGCUUCGGAUAGUGGCAGGGGUGGGGGUUGCUAAGGAAAGGGUGGGAAGGGAGUGGGUAAAGAGUUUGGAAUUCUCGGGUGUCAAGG: 1.73
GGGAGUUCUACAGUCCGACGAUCUGGGAGAUGGAUUUUGUUUAUUUUUUUAGCUCAUUUCCAGGGGUGGGAAUUUUUUUUUAAUAUGUGUCAUGAAUAAAGUUGUUUUUGAAAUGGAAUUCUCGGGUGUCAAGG: -0.0933
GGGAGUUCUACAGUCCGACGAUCCACAGACAACACGCACCCACACAGACACAGAGGGAAGGUGUUGGGAUGGGGACAGGGUGCACAGCAGGGCGGGGUAGGACCCCAGCCCCUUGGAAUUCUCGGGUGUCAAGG: -1.72
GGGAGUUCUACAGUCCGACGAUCAGUCCUGUGCUACACAUCGUAUGUACCGAAUCGGGGUUUGGGGAAAGGGGUUUGGGGAAAGUAUUAUGUUACGCCGUUCGGAUCUGCACUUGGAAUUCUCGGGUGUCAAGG: -1.3
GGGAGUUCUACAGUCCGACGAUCUUUUCAAGGGCCGCUUGAAGAUGCCAUUGAAGAUGAGGAAGAAGAAUGUCCAUCAGAGGAAACAGACAUCAUCUCCAAAGGAGACUUUCCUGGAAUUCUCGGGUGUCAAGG: -2.1
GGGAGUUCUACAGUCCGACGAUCUGGAAGCUCAUACGACUGUGAAAGAAGCUGAGGAUGACAACAUCUCGGUCACAAUCCAGGCUGAAGAUGCCAUCACUCUGGAUUUUGAUGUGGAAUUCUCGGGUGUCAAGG: -2.85
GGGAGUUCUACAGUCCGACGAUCAAGUCCUGUGCUACACAUCGUAUGUACCGAAUCGGAAAAAGGAAAGGAAAAAAAGGAAAGUAUUAUGUUACGCCGUUCGGAUCUGCACUUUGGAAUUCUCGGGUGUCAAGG: -1.05
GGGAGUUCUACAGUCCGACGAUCUCCUGUGCUACACAUCGUAUGUACCGAAUCGGGAAAAAAGGAAAAAAGGAAAAAAGGGGAAAGUAUUAUGUUACGCCGUUCGGAUCUGCAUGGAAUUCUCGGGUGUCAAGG: -1.01
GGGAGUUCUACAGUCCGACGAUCCAAGUCCUGUGCUACACAUCGUAUGUACCGAAUCGGAAAAGGGAAAAGGAAAAGGGAAAGUAUUAUGUUACGCCGUUCGGAUCUGCACUUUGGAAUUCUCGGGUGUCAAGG: -1.28

Block 4
Target: RING finger protein unkempt homolog, zinc fingers 1-6, GST-SBP tag (UNK, Homo sapiens, UniProt Q9C0B0, residues 30-357)
Technique: RNA Bind-n-Seq
Molecule type: RNA
Medium: in vitro
Tested at: not given
Notes: RNA with constant flanks, ends assumed
Baseline: input RNA pool
Reading: higher = stronger binding
Quantity: bound/input enrichment
Residues (chain): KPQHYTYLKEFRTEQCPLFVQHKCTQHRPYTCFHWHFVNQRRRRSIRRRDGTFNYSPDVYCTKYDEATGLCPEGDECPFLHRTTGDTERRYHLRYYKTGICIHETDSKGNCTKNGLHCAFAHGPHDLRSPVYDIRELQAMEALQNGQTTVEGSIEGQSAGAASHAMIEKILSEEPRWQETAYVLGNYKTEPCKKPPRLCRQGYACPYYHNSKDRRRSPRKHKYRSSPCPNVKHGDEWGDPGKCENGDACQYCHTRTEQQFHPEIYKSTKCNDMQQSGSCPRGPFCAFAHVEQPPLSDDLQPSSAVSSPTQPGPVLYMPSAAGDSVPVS
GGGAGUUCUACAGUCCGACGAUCUAAAUUAGGGCUGCCGUUUUCUGUUUCUCCCUGGGCUGCGGAAAGCCAGAAGAUUUUAUCCCGCUUAUACAAGGCUGCUGGUGUUCCCUCUUUUUUUCCACGAGGGUGUUUUUGGCUGCACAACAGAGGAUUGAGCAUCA: 0.724 ratio
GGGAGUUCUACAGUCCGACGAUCUUACUUUUAACUCCAUGGGUUAAAUUCCUGUGGGAGUCUUACAGGCAGUGUUUGGACCUUCUCCGAAACAAUUCUAGAGUAGAGCGCCUGUACCAUGAUAUUGCCCAGCAAGCUUUCAAACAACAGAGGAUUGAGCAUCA: 0.33 ratio
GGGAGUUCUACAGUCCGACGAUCAGCAAAGAAGAAGUUAUCAAGUUCUUGGAAAAUACUCCAUCCAGUCUGAAUAUAGAAGAUACCGAAGACCUUUUCUCUCUGGCUCAGUAUUAUUGCAGCAAAACACCGGCUUCUUUUAGGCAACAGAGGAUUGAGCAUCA: 0.295 ratio
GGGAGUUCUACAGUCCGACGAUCUCAAAAUUCUUCUCUGCCUACAAAAGUCAUUUCCGCAAUGUCCAUAGUGAAGACUUUGAAAACCGGAUUCUCCUUAAUUGCCCCUACUGUACCUUCAAUGCAGACAAAAAGACUUUGGAACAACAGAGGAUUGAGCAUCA: 0.0678 ratio
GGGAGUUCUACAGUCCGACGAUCGGCUCUACGGCGAUUAAGAAGAAACAGCAAGAUGUGCUUUGUUUCUUAGAAGCCAACAAAACCGGAUUUGAAGAAAAAGAUAUUGCAGCUAAUGAAGAGAAUCGGAAGUGGAUGAGAGAACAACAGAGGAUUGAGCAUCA: 0.383 ratio
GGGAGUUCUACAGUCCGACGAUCUUGAAACUUUCUCCAAUUAAAUAUGGCUACCAGCCCCGCAGGAACUUUUGGCCAGCAAGGUCCGCUGCAAGACUCUUAAAACUUCGAUAUAUCAUACUGGGAUCUGCUGUUGGAGGUGGCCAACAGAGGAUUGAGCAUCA: 0.681 ratio

Excerpt of the above (block 3):
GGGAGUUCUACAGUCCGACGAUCGCAGGAAGUAAAAACAAAUGGAAAUGCUUCGGAUAGUGGCAGGGGUGGGGGUUGCUAAGGAAAGGGUGGGAAGGGAGUGGGUAAAGAGUUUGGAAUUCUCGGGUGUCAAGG: 1.73
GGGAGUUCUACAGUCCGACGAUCCAAGUCCUGUGCUACACAUCGUAUGUACCGAAUCGGAAAAGGGAAAAGGAAAAGGGAAAGUAUUAUGUUACGCCGUUCGGAUCUGCACUUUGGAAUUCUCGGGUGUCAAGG: -1.28
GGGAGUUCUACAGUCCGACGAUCCACAGACAACACGCACCCACACAGACACAGAGGGAAGGUGUUGGGAUGGGGACAGGGUGCACAGCAGGGCGGGGUAGGACCCCAGCCCCUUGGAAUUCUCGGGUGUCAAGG: -1.72
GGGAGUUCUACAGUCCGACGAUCUCCUGUGCUACACAUCGUAUGUACCGAAUCGGGAAAAAAGGAAAAAAGGAAAAAAGGGGAAAGUAUUAUGUUACGCCGUUCGGAUCUGCAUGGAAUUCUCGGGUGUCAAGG: -1.01
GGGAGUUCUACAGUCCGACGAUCAGUCCUGUGCUACACAUCGUAUGUACCGAAUCGGGGUUUGGGGAAAGGGGUUUGGGGAAAGUAUUAUGUUACGCCGUUCGGAUCUGCACUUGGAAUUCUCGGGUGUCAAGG: -1.3
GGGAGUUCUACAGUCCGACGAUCUGGGAGAUGGAUUUUGUUUAUUUUUUUAGCUCAUUUCCAGGGGUGGGAAUUUUUUUUUAAUAUGUGUCAUGAAUAAAGUUGUUUUUGAAAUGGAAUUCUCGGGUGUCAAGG: -0.0933
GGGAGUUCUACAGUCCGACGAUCUGGAAGCUCAUACGACUGUGAAAGAAGCUGAGGAUGACAACAUCUCGGUCACAAUCCAGGCUGAAGAUGCCAUCACUCUGGAUUUUGAUGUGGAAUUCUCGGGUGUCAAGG: -2.85
